Measurements pooled from the literature.
Each line is one published result; not all experiments were run side by side. “And” joins repeats or separate records; there may be more than shown.
Cell line: SK-MEL-2

Structure (SMILES)	test	conditions	scale	measurement	value
CSc1nc(-c2ccc(Cl)cc2)c2c(NC(=O)c3ccccc3)nnc-2[nH]1	SRB	10 µM, NCI60 single-dose screen	relative to: untreated	cell growth	107%
C#C[C@@]1(O)[C@@H](CO)O[C@@H](n2ccc3c(N)ncnc32)[C@@H]1O	SRB	NCI-60 screen	–	TGI	6320 nM
CCCCN1CCN(c2ccc3nc(-c4ccc5nc(-c6cc(OC)ccc6OC)[nH]c5c4)[nH]c3c2)CC1	SRB	10 µM, 48 h	–	growth percent	111%
CCOC(=O)CSc1nc(-c2ccc(Cl)cc2)c2c(NC(=O)c3ccccc3)nnc-2[nH]1	SRB	10 µM, NCI60 single-dose screen	relative to: untreated	cell growth	107%
CCCCN1CCN(c2ccc3[nH]c(-c4ccc5[nH]c(-c6ccc(OCC)cc6)nc5c4)nc3c2)CC1	SRB	10 µM, 48 h	–	growth percent	86.6%
CCN(CC)c1ccc(C=NNC(=O)CSc2nc3ccccc3c(=O)n2Cc2ccc(S(N)(=O)=O)cc2)c(O)c1	NCI five-dose screen	–	–	TGI	> 100000 nM
C#C[C@@]1(O)[C@@H](CO)O[C@@H](n2cc(Cl)c3c(N)ncnc32)[C@@H]1O	SRB	NCI-60 screen	–	TGI	268 nM and 481 nM
N#Cc1c(Oc2ccc(F)c(NC(=O)Cc3cccc(C(F)(F)F)c3)c2)ccc2nc(NC(=O)C3CC3)sc12	ERK phosphorylation, inhibitor, Western blot, measured: p-ERK/total ERK	1 h	–	IC50	3310 nM
O=C(Nc1nnc2n3c(Cc4ccccc4)n[nH]c3nc(-c3ccc(Cl)cc3)c1-2)c1ccccc1	SRB	10 µM, NCI60 single-dose screen	relative to: untreated	cell growth	113%
C#C[C@@]1(O)[C@@H](CO)O[C@@H](n2cc(I)c3c(N)ncnc32)[C@@H]1O	SRB	NCI-60 screen	–	TGI	1590 nM and 1950 nM
COc1ccc(OC)c(-c2nc3ccc(-c4nc5ccc(N6CCN(C)CC6)cc5[nH]4)cc3[nH]2)c1	SRB	10 µM, 48 h	–	growth percent	109%
CC(C)(C)c1nc(-c2cccc(NS(=O)(=O)c3c(F)cccc3F)c2F)c(-c2ccnc(N)n2)s1	ERK phosphorylation, activator, Western blot, measured: p-ERK/total ERK	1 h, concentration for 200% induction	–	EC200	14 nM
CCCN1CCN(c2ccc3nc(-c4ccc5nc(-c6cc(OC)ccc6OC)[nH]c5c4)[nH]c3c2)CC1	SRB	10 µM, 48 h	–	growth percent	118%
Cc1n[nH]c2nc(-c3ccc(Cl)cc3)c3c(NC(=O)c4ccccc4)nnc-3n12	SRB	10 µM, NCI60 single-dose screen	relative to: untreated	cell growth	115%
Cn1cncc1C1=CN(c2ncnc3[nH]cnc23)CCS1	–	melanoma cell line	–	GI50	8900 nM
CCCCN1CCN(c2ccc3[nH]c(-c4ccc5[nH]c(-c6ccc(OCC)c(OCC)c6)nc5c4)nc3c2)CC1	SRB	10 µM, 48 h	–	growth percent	13.1%
Cc1cc(C)n(C(=S)[S][Au][PH](CCCCCC[PH]([Au][S]C(=S)n2nc(C)cc2C)(c2ccccc2)c2ccccc2)(c2ccccc2)c2ccccc2)n1	cell growth, NCI-60 screen	melanoma	–	log10 TGI	> -4

A few entries again:
Structure (SMILES)	test	conditions	scale	measurement	value
CCOC(=O)CSc1nc(-c2ccc(Cl)cc2)c2c(NC(=O)c3ccccc3)nnc-2[nH]1	SRB	10 µM, NCI60 single-dose screen	relative to: untreated	cell growth	107%
Cc1cc(C)n(C(=S)[S][Au][PH](CCCCCC[PH]([Au][S]C(=S)n2nc(C)cc2C)(c2ccccc2)c2ccccc2)(c2ccccc2)c2ccccc2)n1	cell growth, NCI-60 screen	melanoma	–	log10 TGI	> -4
CC(C)(C)c1nc(-c2cccc(NS(=O)(=O)c3c(F)cccc3F)c2F)c(-c2ccnc(N)n2)s1	ERK phosphorylation, activator, Western blot, measured: p-ERK/total ERK	1 h, concentration for 200% induction	–	EC200	14 nM
